Published values from different studies.
Each numbered part is a random draw from the data of one study; scales do not carry over between parts.

Study 1 — technique: protein binding microarray; form: double-stranded DNA, one strand shown; medium: in vitro; tested at: not given; relative to: not given; direction: higher = stronger binding
Target: Histone acetyltransferase KAT6A, winged helix 2, GST fusion (KAT6A, Homo sapiens, UniProt Q92794, residues 85-181)
Setting: 8-mer, flanks averaged, mean of 2 arrays, mostly near background
Residues (chain): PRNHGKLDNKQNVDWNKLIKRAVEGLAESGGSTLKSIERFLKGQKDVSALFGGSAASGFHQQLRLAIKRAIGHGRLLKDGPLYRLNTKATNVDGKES
Oligonucleotide | E-score
ACATTCCT | -0.165
GGTTGCAA | 0.0374
CTAAGCAC | 0.194
CCACTCCA | 0.0258
GCATGTCC | -0.0906
AGTTTTGG | 0.0434
CCACGGGC | 0.11
ACCAGAGT | -0.0966
GGGGCCTA | -0.0992
AAATGCCG | 0.107
CCATTCGC | -0.0699
CAAGCGAC | 0.0124
CGAATTCC | 0.0998
CCATTTCC | -0.0346
GCTTTAAC | -0.0324
GCAATCAC | 0.0125
CATCGGTA | -0.0744
ATATTTTA | -0.0132

Study 2 — technique: RNA Bind-n-Seq; form: RNA; medium: in vitro; tested at: not given; setting: RNA with constant flanks, ends assumed; relative to: input RNA pool; direction: higher = stronger binding
Target: RING finger protein unkempt homolog, zinc fingers 1-6, GST-SBP tag (UNK, Homo sapiens, UniProt Q9C0B0, residues 30-357)
Target sequence (chain): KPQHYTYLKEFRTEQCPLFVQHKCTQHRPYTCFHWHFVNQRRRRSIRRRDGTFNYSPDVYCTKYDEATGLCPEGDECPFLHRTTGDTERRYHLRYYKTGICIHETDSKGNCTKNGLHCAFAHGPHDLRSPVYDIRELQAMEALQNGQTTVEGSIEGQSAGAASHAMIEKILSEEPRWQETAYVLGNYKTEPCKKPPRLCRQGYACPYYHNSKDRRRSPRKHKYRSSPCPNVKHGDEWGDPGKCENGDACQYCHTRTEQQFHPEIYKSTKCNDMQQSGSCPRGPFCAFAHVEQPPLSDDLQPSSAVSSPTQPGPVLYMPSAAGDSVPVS
Oligonucleotide | bound/input enrichment [ratio]
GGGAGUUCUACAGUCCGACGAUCGCUUUACUUUCAGAAAAUGUUUUAGGGUAACUGCAUAAGACUAUGCAAUAAUUUUUAAUCAUCCGUAUUGAUGGUGUAUUAAAAGUUGUUGUACUUUGUCUGUGACCUUAAUUUUCUGCACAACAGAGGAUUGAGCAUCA | 0.195
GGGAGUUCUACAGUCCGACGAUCAUUAAUAGGUAUAAGGAUUUUUCUUAUUAAUCUAAUAAAAUUCCUUAAUAGGAAUUUCCACCGCUUAAGAGUGGUUUAUUUUAUCUGCAUCUUCUUUGGUGAUUGCAAAUCCCUUGUGAUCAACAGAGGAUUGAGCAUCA | 1.09
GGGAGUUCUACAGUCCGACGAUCAGCAGGAAGGGCCUCAUAGCUGCCAUCUGUGCAGGUCCUACGGCUCUGUUGGCUCACGAAGCCGGUUUUGGAUGCAAGGUCACAACACACCCACUGGCUAAGGACAAAAUGAUGAAUGGCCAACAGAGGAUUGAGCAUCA | 0.0993
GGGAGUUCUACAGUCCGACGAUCCUCUUCCUCCUGCCCCUGGUUCCCUCCUCUCCUCCCACCCCCACAACCAGUACCAAUGUACACCGUAAUUGUAAUGUUUUAGACUUUACAGAAACUUUCCUGUAUUCUGUAUAUAAAAAACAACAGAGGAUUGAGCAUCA | 0.771
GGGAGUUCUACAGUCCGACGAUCAACAAUGAAUUUAAGACAUAUGGCAUUGAACCUUGAUAUUGAAUUCACAAAGAAUUUCCUACCGAGCACAGAUUUUUGUUAACAUGAGUCAUAACUGUUAACAAUAUUUUAUUUCUCUUACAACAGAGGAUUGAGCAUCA | 0.113
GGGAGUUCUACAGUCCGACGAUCCAAGUACCUUAUAAAUAUGACUUAUAUGAAAAAACUUUGAAAUAUAAUUCAGACUUGCUUAACCGUAAUAGAAGCUAUGCAGGAAAGCAGACUGAUGAGUGUAAUGAAUUUGGAAAAGCACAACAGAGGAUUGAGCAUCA | 0.387
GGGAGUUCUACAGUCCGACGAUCUCACUUCAAGGGUACCUGAAGCGAAUUGGCACCAAAGCAGCAGCUGUAUUGCCGCAGUUCCCGCUUCACCUUCACGAUGUUUCCCUUGGUCAAAAGCGCACUAAAUCGUCUCCAAGUUCGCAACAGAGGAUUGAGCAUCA | 0.0937
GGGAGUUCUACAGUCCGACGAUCUGCCUGCCUUCAAUCCUGGCCAAGUUGGAGUAGACUGGUAUGAGAAAACUAUGAUCCGUUCACAUUUACUGGUGCAUCCUUGAUCCUCUCACAGAUAGAGGUCUUAAAGGUUGGAUCAUGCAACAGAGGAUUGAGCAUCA | 0.194
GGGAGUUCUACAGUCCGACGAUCUAUGGCUUAAAAUGCUUUUGGAGUUUAUUUCUCAAAAUUAAAAUCUGGUCACAUGAGCUUCCGUUUGUUUUCUGGUUUAAAAAAUAAAAAGGUUUCUCUUAACAGUAUUUCCAGUGACAACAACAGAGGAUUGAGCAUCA | 0.253
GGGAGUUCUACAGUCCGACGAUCGAAGCUUUACAUGAGUUACUCAGUUUUGCUUGAAGCAGUUUAAUACCAUCUAUCAUAAAAGCCGCUACAACGUGUCGUGAGUGGAUUCAUUACAAAUGAGAGAUAUACCAUUUCUCUCUGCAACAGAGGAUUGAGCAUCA | 0.189
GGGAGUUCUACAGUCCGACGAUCAAAAUGUUUAUCGGUGGACUGAGCUGGCAGACCUCACCAGAUAGCCUUAGAGACUAUUUCCGCAAAUUUGGAGAAAUUAGAGAAUGUAUGGUCAUGAGAGAUCCCACUACGAAACGCUCCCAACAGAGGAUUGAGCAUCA | 2.02

Study 3 — technique: RNA Bind-n-Seq; form: RNA; medium: in vitro; tested at: 365 nM; relative to: no-protein control; direction: higher = stronger binding
Target: RNA binding protein fox-1 homolog 2, RRM domain, GST-SBP tag (RBFOX2, Homo sapiens, UniProt O43251-10, residues 100-194)
Setting: natural RNA segment, single round, ends assumed
Residues (chain): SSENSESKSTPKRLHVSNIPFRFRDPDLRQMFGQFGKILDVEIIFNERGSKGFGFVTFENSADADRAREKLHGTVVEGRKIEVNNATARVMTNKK
Oligonucleotide | RBNS enrichment (R)
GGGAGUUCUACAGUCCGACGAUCAUGGGACACCCAACACUUUUUCCAUUUCUUCAGAGGGAAACUCAGAUGUCCAAACUAAUUUUAACAAACGCAUUAAGAGGUUUAUUUGGGUACAUGGCCCGCAGUGGCUUUGGAAUUCUCGGGUGCCAA | 0.349
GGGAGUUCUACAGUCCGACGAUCGAAUGUGGGGCUCUGAGAUAAAGGCCCGCAGACAGGGACAAGGGAUGCCCUACCCUUAACCUAGGCUGGACACAUUUGCUGCCUUCUCCUCAAGGAAGAAGAACCCAAGCUGGAAUUCUCGGGUGCCAA | 0.351
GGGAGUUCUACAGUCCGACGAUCGGGCCCCCAACAAUAGAUGGUAGCGUAAGUCUGGAGCAGCGGUGUUUCACCACCAAAUGCCUUUCCAGGCUGCCCUUCCAACACUCAGGAGAGCAUCCAGAUCCCUGGGCUGGAAUUCUCGGGUGCCAA | 0.192
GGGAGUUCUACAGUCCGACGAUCUGCUGCCGAAGAACCCCAUGGUCCUCCCACAAUACCAAAGCUUCCCUGUUUCCCCUUCUGCCUCCGUUUCCCCAGCAGGACCACACUGCCUGUGGGACAAAGGACAGGAUUGGAAUUCUCGGGUGCCAA | 0.508
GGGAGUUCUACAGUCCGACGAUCCCCUGGCCACGAGCUUUGGCCUUGGUCUACCUGCCAGGCCAGGCAAAGCGCCUUUACACAGGCCUCGGAAAACAAUGGAGUGAGCACAAGAUGCCCUGUGCAGCUGCCCGUGGAAUUCUCGGGUGCCAA | 0.312
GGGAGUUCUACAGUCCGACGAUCUCAGCUUUUGAAGUCUGGGCAGUUGACAAAGACCAGCCUGGUCCUAGUUAAUGGUAGAAUACUCCCAAAACUUGGAGAAAGAACUGCUCUCUGAAGCUAUCAGAAAUACCUGGAAUUCUCGGGUGCCAA | 0.241
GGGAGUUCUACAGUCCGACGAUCAUGGGACGCAGGGCCCCAUCUGUCCCUCGGUCGCCGUGUGGCCAGAGUGGGUCCGUCGUCCCCAACACUCGUGCUCGCUCAGACACUUUGGCAGGAUGUCUGGGGCCUCAUGGAAUUCUCGGGUGCCAA | 0.193
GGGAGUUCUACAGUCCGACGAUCUCAGAAUAUGUCUUGUACUUCUAUGGUUAAAAUUAGUACUGCUUUCUCUCGUGAAUGGAGCUGUUUUCUUCAGAGCCUUUGCUCUGAAACAUCACGCUCCCCUGUAUGGGUGGAAUUCUCGGGUGCCAA | 0.33
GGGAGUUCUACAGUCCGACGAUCGUACUACAAGUCCUUAGAGAAAGCUAACUGCUGAGCUGGGCACUCUGCCUGGGACGCAUGGCUGAGUAACAGAGGGGACCACGCAGCCACCGACAGCCCUUCUCUGCGGUUGGAAUUCUCGGGUGCCAA | 1.45

Study 4 — technique: RNA Bind-n-Seq; form: RNA; medium: in vitro; tested at: 1 µM; setting: whole 134-nt RNA, ends assumed; added: 150 mM KCl; relative to: input library; direction: higher = stronger binding
Target: Ras GTPase-activating protein-binding protein 1, C-terminal RGG region (G3BP1, Homo sapiens, UniProt Q13283)
UniProt Q13283, sequence (whole entry, looked up): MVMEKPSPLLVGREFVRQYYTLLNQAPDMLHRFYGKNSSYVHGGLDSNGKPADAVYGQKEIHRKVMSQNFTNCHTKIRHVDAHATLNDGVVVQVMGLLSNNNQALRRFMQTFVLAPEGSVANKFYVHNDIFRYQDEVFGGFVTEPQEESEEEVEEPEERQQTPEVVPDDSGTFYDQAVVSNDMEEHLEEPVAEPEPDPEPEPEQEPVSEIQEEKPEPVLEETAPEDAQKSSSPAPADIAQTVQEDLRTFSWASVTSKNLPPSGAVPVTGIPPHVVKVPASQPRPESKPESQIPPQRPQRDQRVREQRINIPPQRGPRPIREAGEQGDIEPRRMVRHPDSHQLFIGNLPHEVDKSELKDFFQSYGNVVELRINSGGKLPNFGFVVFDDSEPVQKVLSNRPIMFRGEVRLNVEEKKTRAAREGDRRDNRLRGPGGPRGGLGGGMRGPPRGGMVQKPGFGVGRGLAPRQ
Oligonucleotide | log2 enrichment
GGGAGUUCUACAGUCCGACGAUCCAAGUCCUGUGCUACACAUCGUAUGUACCGAAUCGGUUUUUUUGGUGGAAAAAGGAAAGUAUUAUGUUACGCCGUUCGGAUCUGCACUUCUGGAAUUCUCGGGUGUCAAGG | -1.68
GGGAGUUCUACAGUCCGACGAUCUUCCUCAAGUCCUGUGCUACACAUCGUAUGUACCGAAUCGGGUGGUGGUGGAAAGUAUUAUGUUACGCCGUUCGGAUCUGCACUUCCAGCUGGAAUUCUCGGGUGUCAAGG | -0.52
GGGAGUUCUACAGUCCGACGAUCCCUCAAGUCCUGUGCUACACAUCGUAUGUACCGAAUCGGCGGGCGGGGCGGGGAAAGUAUUAUGUUACGCCGUUCGGAUCUGCACUUCCAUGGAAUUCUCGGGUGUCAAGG | -0.317
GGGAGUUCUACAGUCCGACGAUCUCCUGUGCUACACAUCGUAUGUACCGAAUCGGGGUUUUUGGGGUUUGGGGAAAAAGGGGAAAGUAUUAUGUUACGCCGUUCGGAUCUGCAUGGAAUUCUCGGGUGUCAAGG | 2.13
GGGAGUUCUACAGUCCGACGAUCCCUCAAGUCCUGUGCUACACAUCGUAUGUACCGAAUCGGUUGGGUUGGUUGGGAAAGUAUUAUGUUACGCCGUUCGGAUCUGCACUUCCAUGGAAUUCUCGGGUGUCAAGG | -0.901
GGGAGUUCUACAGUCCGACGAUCCCUGUGCUACACAUCGUAUGUACCGAAUCAAAGUGUGUGUGUGUGAAAUGUGUGUGUGAAAAAAGUAUUAUGUUACGCCGUUCGGAUCUGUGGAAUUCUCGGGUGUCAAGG | -0.258
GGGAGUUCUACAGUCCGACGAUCGCAGGACGUAAAAACAAAUGGAAAUGCUUCGGAUAGUGGCAGGGGUGGGGGUUGCUAAGGAAAGGGUGGGAUGGGAGUGGGUAAAGAGUUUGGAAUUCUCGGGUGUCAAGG | 1.28
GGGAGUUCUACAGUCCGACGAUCAGUCCUGUGCUACACAUCGUAUGUACCGAAUCGGGAAAAAGGGAAAAAGGAAAAAGGGAAAGUAUUAUGUUACGCCGUUCGGAUCUGCACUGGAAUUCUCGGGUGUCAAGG | -1.93
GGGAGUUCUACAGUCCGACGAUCAAGUCCUGUGCUACACAUCGUAUGUACCGAAUCGGCCCCGGGGCCCCGGGCCCCGGAAAGUAUUAUGUUACGCCGUUCGGAUCUGCACUUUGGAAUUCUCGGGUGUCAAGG | -1.77
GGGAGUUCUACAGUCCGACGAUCUAACUUUAGAGGAGGAUCUGCUGGAUAUGGCAGUGGACGUGGAUUUGGGGAUGGCUAUAAUGGGUAUGGAGGAGGACCUGGAGGUGGCAAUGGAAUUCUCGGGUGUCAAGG | -0.815

Excerpt of the above (study 3):
Oligonucleotide | RBNS enrichment (R)
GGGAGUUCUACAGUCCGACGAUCGAAUGUGGGGCUCUGAGAUAAAGGCCCGCAGACAGGGACAAGGGAUGCCCUACCCUUAACCUAGGCUGGACACAUUUGCUGCCUUCUCCUCAAGGAAGAAGAACCCAAGCUGGAAUUCUCGGGUGCCAA | 0.351
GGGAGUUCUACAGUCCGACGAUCGGGCCCCCAACAAUAGAUGGUAGCGUAAGUCUGGAGCAGCGGUGUUUCACCACCAAAUGCCUUUCCAGGCUGCCCUUCCAACACUCAGGAGAGCAUCCAGAUCCCUGGGCUGGAAUUCUCGGGUGCCAA | 0.192
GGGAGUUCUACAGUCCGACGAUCUGCUGCCGAAGAACCCCAUGGUCCUCCCACAAUACCAAAGCUUCCCUGUUUCCCCUUCUGCCUCCGUUUCCCCAGCAGGACCACACUGCCUGUGGGACAAAGGACAGGAUUGGAAUUCUCGGGUGCCAA | 0.508
